Results collected from several papers.
Compare with care: the assays were run in different laboratories. Numbers after ± are the reported error.
Proteasome component C5/PSMB5: Proteasome component C5/PSMB5 (Homo sapiens, UniProt P20618+P28074)
UniProt P28074, sequence (whole entry, looked up): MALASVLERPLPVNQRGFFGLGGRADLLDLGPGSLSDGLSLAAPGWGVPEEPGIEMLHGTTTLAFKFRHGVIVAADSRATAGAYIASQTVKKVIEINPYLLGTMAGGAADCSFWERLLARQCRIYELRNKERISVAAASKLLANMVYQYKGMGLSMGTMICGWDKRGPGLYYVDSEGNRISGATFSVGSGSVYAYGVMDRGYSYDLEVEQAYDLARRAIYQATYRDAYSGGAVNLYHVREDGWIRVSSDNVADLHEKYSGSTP
UniProt P20618, sequence (whole entry, looked up): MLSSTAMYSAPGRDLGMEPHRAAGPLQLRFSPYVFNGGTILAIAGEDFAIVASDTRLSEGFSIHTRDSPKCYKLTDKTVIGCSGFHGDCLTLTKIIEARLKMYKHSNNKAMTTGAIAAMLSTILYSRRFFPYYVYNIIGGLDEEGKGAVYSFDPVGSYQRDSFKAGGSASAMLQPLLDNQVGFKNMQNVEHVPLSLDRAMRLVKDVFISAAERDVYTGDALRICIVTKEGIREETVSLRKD
CSNK1D: Casein kinase I isoform delta (CSNK1D, Homo sapiens, UniProt P48730)
UniProt P48730, sequence (whole entry, looked up): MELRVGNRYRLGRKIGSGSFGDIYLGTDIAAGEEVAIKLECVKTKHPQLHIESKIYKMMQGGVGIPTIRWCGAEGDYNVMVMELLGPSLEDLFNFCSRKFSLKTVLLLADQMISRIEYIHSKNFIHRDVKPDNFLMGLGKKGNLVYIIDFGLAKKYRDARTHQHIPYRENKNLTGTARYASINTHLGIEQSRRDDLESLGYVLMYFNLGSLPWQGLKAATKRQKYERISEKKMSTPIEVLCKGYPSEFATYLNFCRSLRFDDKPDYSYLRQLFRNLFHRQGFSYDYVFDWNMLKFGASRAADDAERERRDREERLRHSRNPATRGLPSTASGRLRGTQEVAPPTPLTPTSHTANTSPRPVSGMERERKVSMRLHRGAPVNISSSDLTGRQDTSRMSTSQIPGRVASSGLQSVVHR
PSMB5: Proteasome Macropain subunit MB1 (PSMB5, Homo sapiens, UniProt P28074)
UniProt P42568, sequence (whole entry, looked up): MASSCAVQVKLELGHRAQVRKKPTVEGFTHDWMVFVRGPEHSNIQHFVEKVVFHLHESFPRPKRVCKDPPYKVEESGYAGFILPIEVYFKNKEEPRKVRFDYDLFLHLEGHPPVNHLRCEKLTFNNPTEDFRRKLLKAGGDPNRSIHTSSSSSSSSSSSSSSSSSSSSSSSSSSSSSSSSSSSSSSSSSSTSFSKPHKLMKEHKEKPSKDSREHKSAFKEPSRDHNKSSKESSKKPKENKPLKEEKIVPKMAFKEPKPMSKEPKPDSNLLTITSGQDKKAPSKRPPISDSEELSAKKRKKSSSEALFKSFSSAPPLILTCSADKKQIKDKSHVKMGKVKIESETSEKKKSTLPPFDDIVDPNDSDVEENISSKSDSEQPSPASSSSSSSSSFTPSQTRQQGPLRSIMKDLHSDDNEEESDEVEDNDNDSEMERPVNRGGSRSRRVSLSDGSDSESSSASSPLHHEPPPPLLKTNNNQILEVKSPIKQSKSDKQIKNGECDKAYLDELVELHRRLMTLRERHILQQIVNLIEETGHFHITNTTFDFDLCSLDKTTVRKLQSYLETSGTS
UniProt P10275, sequence (whole entry, looked up): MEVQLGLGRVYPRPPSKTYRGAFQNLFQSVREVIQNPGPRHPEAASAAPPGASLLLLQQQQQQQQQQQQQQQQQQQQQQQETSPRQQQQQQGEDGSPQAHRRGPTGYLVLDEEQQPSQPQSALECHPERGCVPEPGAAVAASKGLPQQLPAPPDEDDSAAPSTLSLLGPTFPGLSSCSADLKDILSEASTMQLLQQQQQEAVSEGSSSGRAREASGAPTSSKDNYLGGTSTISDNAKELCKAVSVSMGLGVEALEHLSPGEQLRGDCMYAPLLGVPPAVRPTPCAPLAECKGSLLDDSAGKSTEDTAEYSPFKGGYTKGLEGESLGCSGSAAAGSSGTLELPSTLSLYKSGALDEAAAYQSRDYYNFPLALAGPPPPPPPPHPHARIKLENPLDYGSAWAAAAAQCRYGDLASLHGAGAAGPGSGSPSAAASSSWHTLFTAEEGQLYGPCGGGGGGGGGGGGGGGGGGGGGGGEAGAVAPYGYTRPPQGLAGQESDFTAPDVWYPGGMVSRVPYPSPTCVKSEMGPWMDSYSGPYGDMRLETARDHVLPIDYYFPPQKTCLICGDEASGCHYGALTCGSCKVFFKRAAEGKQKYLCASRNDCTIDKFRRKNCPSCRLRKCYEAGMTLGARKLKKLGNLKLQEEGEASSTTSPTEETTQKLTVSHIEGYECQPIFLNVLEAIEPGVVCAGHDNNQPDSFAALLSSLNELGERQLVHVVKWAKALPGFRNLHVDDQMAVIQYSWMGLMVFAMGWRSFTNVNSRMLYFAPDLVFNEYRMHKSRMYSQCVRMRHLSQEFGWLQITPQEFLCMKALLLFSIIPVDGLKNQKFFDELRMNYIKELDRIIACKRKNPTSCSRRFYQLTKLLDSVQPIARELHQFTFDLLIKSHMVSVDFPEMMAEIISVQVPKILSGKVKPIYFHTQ
UniProt P07949, sequence (whole entry, looked up): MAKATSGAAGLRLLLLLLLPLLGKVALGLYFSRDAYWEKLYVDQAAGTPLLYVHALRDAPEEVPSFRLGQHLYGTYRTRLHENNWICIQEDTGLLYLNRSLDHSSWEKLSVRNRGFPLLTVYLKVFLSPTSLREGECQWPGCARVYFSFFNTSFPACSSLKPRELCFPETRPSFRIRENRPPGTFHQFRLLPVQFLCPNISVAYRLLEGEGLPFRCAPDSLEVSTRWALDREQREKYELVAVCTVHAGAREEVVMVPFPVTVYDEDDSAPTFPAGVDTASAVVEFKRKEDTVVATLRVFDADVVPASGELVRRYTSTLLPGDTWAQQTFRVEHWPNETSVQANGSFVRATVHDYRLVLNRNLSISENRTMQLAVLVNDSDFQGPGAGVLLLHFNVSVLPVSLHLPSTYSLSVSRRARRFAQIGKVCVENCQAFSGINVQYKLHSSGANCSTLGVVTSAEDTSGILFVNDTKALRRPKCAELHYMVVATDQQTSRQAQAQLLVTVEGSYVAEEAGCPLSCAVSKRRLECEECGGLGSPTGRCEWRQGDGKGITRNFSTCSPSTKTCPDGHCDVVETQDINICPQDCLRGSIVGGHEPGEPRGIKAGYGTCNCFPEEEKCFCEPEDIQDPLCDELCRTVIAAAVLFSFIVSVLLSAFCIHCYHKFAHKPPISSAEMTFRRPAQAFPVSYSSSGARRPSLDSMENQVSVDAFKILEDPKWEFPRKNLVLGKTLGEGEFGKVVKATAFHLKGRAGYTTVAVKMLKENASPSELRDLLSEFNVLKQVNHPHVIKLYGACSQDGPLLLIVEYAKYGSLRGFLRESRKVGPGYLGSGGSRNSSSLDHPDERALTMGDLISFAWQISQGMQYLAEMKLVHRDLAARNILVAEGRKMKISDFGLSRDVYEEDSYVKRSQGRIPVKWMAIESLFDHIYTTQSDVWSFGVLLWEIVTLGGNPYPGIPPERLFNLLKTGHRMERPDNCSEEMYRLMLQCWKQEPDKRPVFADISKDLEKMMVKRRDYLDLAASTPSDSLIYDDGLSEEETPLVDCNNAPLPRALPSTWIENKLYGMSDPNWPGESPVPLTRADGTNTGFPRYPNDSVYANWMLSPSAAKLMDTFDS
UniProt P11309, sequence (whole entry, looked up): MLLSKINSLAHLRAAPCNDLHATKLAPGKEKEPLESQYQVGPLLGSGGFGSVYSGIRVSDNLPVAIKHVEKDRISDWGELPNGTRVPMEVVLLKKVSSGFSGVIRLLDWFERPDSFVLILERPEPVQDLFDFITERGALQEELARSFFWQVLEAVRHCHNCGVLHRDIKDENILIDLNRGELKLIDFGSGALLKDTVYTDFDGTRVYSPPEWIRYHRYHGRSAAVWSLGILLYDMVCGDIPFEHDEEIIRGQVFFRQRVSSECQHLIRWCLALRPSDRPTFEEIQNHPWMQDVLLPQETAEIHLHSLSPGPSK
UniProt P00383, sequence (whole entry, looked up): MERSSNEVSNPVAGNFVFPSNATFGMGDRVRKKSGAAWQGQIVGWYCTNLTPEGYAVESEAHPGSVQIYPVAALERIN
UniProt O15393, sequence (whole entry, looked up): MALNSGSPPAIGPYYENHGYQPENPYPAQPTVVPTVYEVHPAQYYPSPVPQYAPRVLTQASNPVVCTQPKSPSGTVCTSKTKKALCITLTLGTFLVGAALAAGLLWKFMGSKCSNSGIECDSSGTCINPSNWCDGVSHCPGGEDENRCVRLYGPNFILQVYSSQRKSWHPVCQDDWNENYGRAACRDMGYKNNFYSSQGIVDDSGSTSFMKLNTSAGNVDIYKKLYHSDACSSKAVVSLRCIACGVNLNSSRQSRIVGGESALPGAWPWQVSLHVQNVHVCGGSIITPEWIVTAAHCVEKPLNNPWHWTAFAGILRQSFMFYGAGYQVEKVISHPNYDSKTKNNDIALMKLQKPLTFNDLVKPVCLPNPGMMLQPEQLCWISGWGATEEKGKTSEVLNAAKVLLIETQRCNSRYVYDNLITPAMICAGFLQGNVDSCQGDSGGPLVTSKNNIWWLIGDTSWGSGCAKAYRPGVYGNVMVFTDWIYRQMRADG
UniProt P07550, sequence (whole entry, looked up): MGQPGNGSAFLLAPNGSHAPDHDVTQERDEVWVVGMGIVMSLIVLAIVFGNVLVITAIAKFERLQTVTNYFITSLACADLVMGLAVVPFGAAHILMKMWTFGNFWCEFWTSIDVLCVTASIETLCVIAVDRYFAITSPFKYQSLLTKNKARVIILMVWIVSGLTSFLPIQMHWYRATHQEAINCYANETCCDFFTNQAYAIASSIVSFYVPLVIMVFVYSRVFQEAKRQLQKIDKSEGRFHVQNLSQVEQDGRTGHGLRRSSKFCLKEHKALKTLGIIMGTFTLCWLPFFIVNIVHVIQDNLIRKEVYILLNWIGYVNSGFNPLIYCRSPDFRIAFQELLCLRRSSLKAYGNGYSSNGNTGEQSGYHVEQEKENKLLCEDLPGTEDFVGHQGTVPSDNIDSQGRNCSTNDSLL
UniProt Q9NRF9, sequence (whole entry, looked up): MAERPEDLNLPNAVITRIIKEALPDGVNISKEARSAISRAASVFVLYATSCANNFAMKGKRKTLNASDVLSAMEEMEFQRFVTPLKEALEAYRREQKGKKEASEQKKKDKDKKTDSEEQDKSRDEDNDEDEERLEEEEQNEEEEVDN

With `NC(N)=NCCC[C@H](NC(=O)[C@@H]1CCCN1C(=O)[C@H](N)Cc1ccccc1)C(=O)CCl` the IC50 was 0.00032 ± 9e-05 µM (Transmembrane protease serine 2 (TMPRSS2, Homo sapiens, UniProt O15393); enzyme activity).
The IC50 of `CC1=C[C@@]2(C[C@H](C)[C@H]3CC=C(CO)C(=O)[C@@H]3O2)OC1=O` is reported as 91 µM (DNA polymerase epsilon subunit 3 (Homo sapiens, UniProt Q9NRF9); competitive probe labelling, in-gel fluorescence; 293T overexpressing POLE3-GFP).
`O=C(NC1CCNCC1)c1ccc2nc(-c3ccc(N4CCCC4)cc3)c(-c3ccc(N4CCCC4)cc3)nc2c1` has an IC50 of 1.2 µM (Protein AF-9, with DOT1L (Homo sapiens, UniProt P42568); DOT1L binding, AlphaLISA).
With `COCc1nn(Cc2ccc(Cn3ccccc3=O)cc2)cc1C(=O)NCc1c(Cl)ccc(OC)c1F` the IC50 was over 40 µM (Prothrombin (F2, Homo sapiens, UniProt P00734)).
With `CN1CCN(CCCOc2ccc(-c3nc4ccc(C(=O)NCCN5CCOCC5)cc4[nH]3)cc2)CC1` the IC50 was over 500 µM (Dihydrofolate reductase type 2 (Escherichia coli, UniProt P00383); enzyme activity; pH 7).
`CCn1c(-c2nc3cc(C(=O)N4CCC[C@@H](N)C4)cc(OC)c3n2C)cc2cccnc21` has an IC50 of over 31.6 µM (Beta-2 adrenergic receptor (ADRB2, Homo sapiens, UniProt P07550); antagonist, TR-FRET).
With `CC(C)C[C@H](NC(=O)[C@H](CCc1ccccc1)NC(=O)OCc1ccccc1)C(=O)N[C@@H](Cc1ccccc1)C(=O)NN(CC(C)C)C(=O)/C=C/C(=O)NCc1ccccc1` the IC50 was 11.3 ± 4.2 µM (Proteasome component C5/PSMB5; chymotrypsin-like activity, inhibitor; human 20S proteasome; with: Suc-LLVY-AMC 100 µM).
With `Cn1c(=O)c2c(ncn2C)n(C)c1=O` the IC50 was 335 µM (Solute carrier family 2, facilitated glucose transporter member 9 (SLC2A9, Homo sapiens, UniProt Q9NRM0); urate uptake; Xenopus oocytes; 1 h, pH 7.4, with: 40 µM [14C]urate).
With `Fc1ccc(-c2nc(-c3cccnc3)[nH]c2-c2ccncc2)cc1` the IC50 was 0.0751 ± 0.0081 µM (CSNK1D; inhibitor).
With `Fc1ccc(Oc2ccc(Nc3ccc4ncc(OCC5CCNCC5)nc4c3)cc2)cc1` the IC50 was 1 ± 0.07 µM (Protein AF-9, with AF4 (Homo sapiens, UniProt P42568); AlphaScreen).
`CN1CCN(c2ccc(Nc3ncc4cc(C#N)c(=O)n(C5CCCC5)c4n3)cc2)CC1` gave an IC50 of 0.875 µM (Serine/threonine-protein kinase pim-1 (PIM1, Homo sapiens, UniProt P11309)).
For `COc1ccc(NC(=O)Nc2ccccc2-c2nc(-c3ccoc3)n[nH]2)cc1`, the IC50 was 36.7 µM (Proto-oncogene tyrosine-protein kinase receptor Ret (RET, Homo sapiens, UniProt P07949); kinase activity, inhibitor; replicate three, with: 1 µM ATP, poly(Glu,Tyr)).
For `Fc1ccc(-c2nc(-c3c(F)cccc3F)[nH]c2-c2ccncc2)cc1`, the IC50 was 0.0212 ± 0.0024 µM (CSNK1D; inhibitor).
The IC50 of `C[C@H](CCC(=O)O)[C@@H]1CC[C@H]2[C@@H]3CCC4=CC(=O)CC[C@]4(C)[C@H]3CC[C@@]21C` is reported as 0.213 µM (Androgen receptor (AR, Homo sapiens, UniProt P10275); reporter gene, antagonist, luciferase reporter; with: DHT 15 pM).
`CC(C)C[C@H](NC(=O)[C@H](Cc1ccccc1)N=[N+]=[N-])C(=O)N[C@@H](CO)C(=O)N[C@H](/C=C/S(C)(=O)=O)Cc1ccc(CN)cc1` gave an IC50 of 5.53 µM (PSMB5; competitive ABPP; Raji cell lysate).
The IC50 of `O=C1C(SCCO)=C(SCCO)C(=O)c2ccccc21` is reported as 2.5 ± 0.6 µM (Protein-glutamine gamma-glutamyltransferase (TGM2, Homo sapiens, UniProt P21980); enzyme activity, inhibitor, BP incorporation; with: no DTT, Triton 0.02%).
For `CC(C)C[C@H](NC(=O)OCc1ccccc1)C(=O)N[C@@H](Cc1ccccc1)C(=O)NN(CC(C)C)C(=O)C=O`, the IC50 was 27.3 ± 6.2 µM (Proteasome component C5/PSMB5; β5 chymotrypsin-like activity, inhibitor; with: Suc-LLVY-AMC 100 µM).
The IC50 of `COc1ccc(C[C@H](NC(=O)[C@H](C)NC(=O)CN2CCOCC2)C(=O)N[C@@H](CC2CCC3CCCCC3C2)C(=O)[C@@]2(C)CO2)cc1` (stereo partly drawn) is reported as over 10 µM (PSMB5; competitive ABPP; Raji cell lysate).

Repeated from above:
For `Fc1ccc(-c2nc(-c3c(F)cccc3F)[nH]c2-c2ccncc2)cc1`, the IC50 was 0.0212 ± 0.0024 µM (CSNK1D; inhibitor).
The IC50 of `COc1ccc(C[C@H](NC(=O)[C@H](C)NC(=O)CN2CCOCC2)C(=O)N[C@@H](CC2CCC3CCCCC3C2)C(=O)[C@@]2(C)CO2)cc1` (stereo partly drawn) is reported as over 10 µM (PSMB5; competitive ABPP; Raji cell lysate).
`O=C(NC1CCNCC1)c1ccc2nc(-c3ccc(N4CCCC4)cc3)c(-c3ccc(N4CCCC4)cc3)nc2c1` has an IC50 of 1.2 µM (Protein AF-9, with DOT1L (Homo sapiens, UniProt P42568); DOT1L binding, AlphaLISA).
